# Experimental data from different studies.
# Each numbered part is a random draw from the data of one study; scales do not carry over between parts. Positions count from the first letter of the parent shown.

# Set 1
# Target: ABI1, truncated, D143A, DHFR fusion (Arabidopsis thaliana)
# Method: DHFR PCA, deep sequencing
# Matrix: yeast
# Setting: methotrexate growth selection, single substitutions
# With: (+)-ABA 17 µM
# Reference: wild-type fitted maximum
# Reading: higher = stronger binding
# Starting sequence: PYL1, truncated, DHFR fusion (Arabidopsis thaliana); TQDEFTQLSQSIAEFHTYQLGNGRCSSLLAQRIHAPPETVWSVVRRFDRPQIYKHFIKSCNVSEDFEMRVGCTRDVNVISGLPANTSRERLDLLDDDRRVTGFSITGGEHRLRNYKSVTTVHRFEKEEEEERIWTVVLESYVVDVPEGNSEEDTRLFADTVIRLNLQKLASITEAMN
Substitution,relative binding score
C60L,16.9%
R155D,-13.8%
I162R,-10.4%
V121P,0.561%
G148K,45.8%
R69M,78.2%
V137F,22.4%
F103M,28.9%
S63T,82.3%
R98K,86.2%
R113V,86.2%
W41L,6.13%
Q31P,-9.27%
S42W,34.8%
D159M,1.04%
T17W,17.1%
R46I,2.62%
D97N,93.6%
E89D,22.4%
H34C,82.3%
I172C,69.2%
C72R,39.2%
S59D,86.7%

# Set 2
# Target: CCNB2, cyclin fold, Cln2 fusion (human)
# Method: yeast growth competition, sequencing
# Matrix: yeast
# Setting: weak parent motif
# Reference: not given
# Reading: higher = stronger binding
# Starting sequence: AKAP12 docking peptide (human); GSPLKKLFTSTGL
Substitution,normalised enrichment score
GSPLKKLATSTGL [F8A],-0.447
GSPLRKLFTSTGL [K5R],-0.0564
GSALKKLFTSTGL [P3A],0.758
GSPLKKAFTSTGL [L7A],-0.381
GSPLAKAFTSTGL [K5A L7A],-0.336
GSPLKKLLTSTGL [F8L],-0.657
GSPLKKLFTSTGA [L13A],0.00241
GSPLKALFTSTGL [K6A],-0.0894
ASPLKKLFTSTGL [G1A],0.62
GSPLKKLFTSAGL [T11A],-0.768

# Set 3
# Target: RNA binding protein fox-1 homolog 2, RRM domain, GST-SBP tag (RBFOX2, Homo sapiens, UniProt O43251-10, residues 100-194)
# Method: RNA Bind-n-Seq
# Form: RNA
# Matrix: in vitro
# Concentration: 365 nM
# Setting: natural RNA segment, single round, ends assumed
# Reference: no-protein control
# Reading: higher = stronger binding
# Shared flanks, not repeated: GGGAGUUCUACAGUCCGACGAUC … UGGAAUUCUCGGGUGCCAA
# Residues (chain): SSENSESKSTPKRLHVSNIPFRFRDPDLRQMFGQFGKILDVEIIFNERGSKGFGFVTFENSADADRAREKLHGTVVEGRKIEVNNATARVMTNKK
Sequence,RBNS enrichment (R)
UUCACACAGUAUUUCUUUAGGAUGCUGUGAUGAUUUGAAUUACAAAUCCUACAGUCAAUAGCUAAAGACGAAACCUUCAUUUCAGAACUCUCAUGAAUAUUCUUUAAGUG,0.308
GAAUCAUUAGGUAUAAAAAAUAAUCAUCAACCAGGCAAAUUACUUUGCUUCCUAGCUGAUGUCAUCCCACAUUGGUACAGGUGUUAUUCAGUACUGGGUGGUUCAGCAGG,0.243
AACAGUGGGGUAUGUGAUGGUUUUGGCAUGACAUCUUCAGUAUGAGGGGGACAGUUUGACUUCACUUUGAGGGUGUGAUGUCUGUAGCUAUGUGGAAGGUAAAAAUAGUG,1.99
CAGAGAGCAAACAGUGAGAUAACAGGAGCUGUCUGUCGCAAAGCUUGCUUUCCACUGACACUCAGUUCACCCUGCCACUCUGCAAGGUUUGCCUUGGGCAGCUGUGGGGU,0.19
GGUGCCUGCCUUUGUCUGUGAGCUCAUUCCCACUGUUACCCUGAGCUGGCCCAAUGGAGCCUUACAGAACUAAUCAGGACUUGUGGAGACCUCUGCACUGAACUUCCUAU,0.49
CUCCGCACUGUGUGUACAGUAUUGGACAAAGGAUUUAUUCAUUUUGUUGCAUUAUUUUGAAUAUUGUCUUUUCAUUUUAAUAAAGUUAUAUUACUUAUUUAUGACACCGU,1.23
GGGCAACAUGGUGAAACCCUGUUUCUAUAAAAAAUAAUCUGGGCUUUGUAGCAUAUGCCUGUGGUCCCAGCUACUGAGGAGGCUGAGGUGGGAGGAUUGCUUGAGCCCAG,0.954
CUUUUAUGAAAUCACUACAAUAGAUCUACGUUGGAAAUAACUAUCAAUUUGUAAAGAAAUUUUUAUUAAACACUGUAGAAAAAGUGAAGCUGAGAACUCUUUUGUGCAUU,1.92
GAUAAAGUGUGUUUUCAGGCUCAAUUAUUUCACCUUAAUGUAAUGUACUGUAAGAUUUUGUACUGAAUUUCAUUUUUUUAAAUUAUGCUCAAGAACUUAAUUUUUAACCA,0.642
GGGGUUUGUUUUAGUUUUCUUUAGUGAAUUUAUGCUGUUUUGGGGGGCGGAUUGAGAAGAAUCUUCCGUAGCCUGAGCUGUCCCUCCUGUUUUGACGGCACAUGUGCCAG,1.24
GGAGCCUGGACACUGCCAUCUCUAGAGCAGAGUGGAGGCCUGGACUCCCUUUGCUCACUCCAUUCGGGUCCACAGCUGAGGUUGCCGCUGACAAGAUGAAUGGGCACUGC,0.325
GACUCCCUGGGCUCCCCCCUGCCUUCAUCUCACAAGAAACUUCCUGAUGCAUCAAACUUGAGUUUUUUCCACCUCAUCUUUCCCAGUGUUUGGAAAGGUGUGAGGGUAGA,1.64

# Set 4
# Target: CEBPA, bZIP domain (human)
# Method: DHFR protein complementation
# Matrix: yeast
# Setting: single substitutions, most at no-binding floor
# Reference: wild-type JUN-FOS pair
# Reading: higher = stronger binding
# Starting sequence: JUN, bZIP domain (human); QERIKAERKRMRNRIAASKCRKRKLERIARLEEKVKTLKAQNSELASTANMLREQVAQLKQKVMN; partner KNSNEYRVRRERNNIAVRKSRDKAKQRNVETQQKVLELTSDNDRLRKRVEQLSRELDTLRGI
Substitution,binding fitness
N42F,-1.49 natural log
K36P,-1.53 natural log
T48G,-1.47 natural log
K34R,-1.4 natural log
K34M,-1.45 natural log
T48D,-1.51 natural log
L38R,-1.49 natural log
E44T,-1.41 natural log
L31I,-1.41 natural log
L45R,-1.48 natural log
A46N,-1.4 natural log
A29Y,-1.44 natural log
S47C,-1.42 natural log
E44K,-1.14 natural log

# For quick reference, copied from above (set 3):
Sequence,RBNS enrichment (R)
GGGGUUUGUUUUAGUUUUCUUUAGUGAAUUUAUGCUGUUUUGGGGGGCGGAUUGAGAAGAAUCUUCCGUAGCCUGAGCUGUCCCUCCUGUUUUGACGGCACAUGUGCCAG,1.24
GGGCAACAUGGUGAAACCCUGUUUCUAUAAAAAAUAAUCUGGGCUUUGUAGCAUAUGCCUGUGGUCCCAGCUACUGAGGAGGCUGAGGUGGGAGGAUUGCUUGAGCCCAG,0.954
UUCACACAGUAUUUCUUUAGGAUGCUGUGAUGAUUUGAAUUACAAAUCCUACAGUCAAUAGCUAAAGACGAAACCUUCAUUUCAGAACUCUCAUGAAUAUUCUUUAAGUG,0.308
GAAUCAUUAGGUAUAAAAAAUAAUCAUCAACCAGGCAAAUUACUUUGCUUCCUAGCUGAUGUCAUCCCACAUUGGUACAGGUGUUAUUCAGUACUGGGUGGUUCAGCAGG,0.243
